# Results from different studies.
# Every numbered part comes from another study and shows a few of its results, in no order. “And” joins repeats or separate records; there may be more than shown.
# UniProt P35462, sequence (whole entry, looked up): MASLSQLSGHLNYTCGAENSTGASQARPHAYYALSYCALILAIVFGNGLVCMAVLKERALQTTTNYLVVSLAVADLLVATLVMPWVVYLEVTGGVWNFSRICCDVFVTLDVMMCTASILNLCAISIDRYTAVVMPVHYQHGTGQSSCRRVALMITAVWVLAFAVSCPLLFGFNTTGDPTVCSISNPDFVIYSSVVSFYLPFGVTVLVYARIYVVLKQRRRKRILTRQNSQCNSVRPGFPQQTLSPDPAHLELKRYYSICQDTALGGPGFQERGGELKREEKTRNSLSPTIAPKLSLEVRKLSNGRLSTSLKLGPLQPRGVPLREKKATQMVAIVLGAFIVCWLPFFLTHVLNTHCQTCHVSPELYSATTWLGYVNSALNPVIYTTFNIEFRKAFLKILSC
# UniProt P07550, sequence (whole entry, looked up): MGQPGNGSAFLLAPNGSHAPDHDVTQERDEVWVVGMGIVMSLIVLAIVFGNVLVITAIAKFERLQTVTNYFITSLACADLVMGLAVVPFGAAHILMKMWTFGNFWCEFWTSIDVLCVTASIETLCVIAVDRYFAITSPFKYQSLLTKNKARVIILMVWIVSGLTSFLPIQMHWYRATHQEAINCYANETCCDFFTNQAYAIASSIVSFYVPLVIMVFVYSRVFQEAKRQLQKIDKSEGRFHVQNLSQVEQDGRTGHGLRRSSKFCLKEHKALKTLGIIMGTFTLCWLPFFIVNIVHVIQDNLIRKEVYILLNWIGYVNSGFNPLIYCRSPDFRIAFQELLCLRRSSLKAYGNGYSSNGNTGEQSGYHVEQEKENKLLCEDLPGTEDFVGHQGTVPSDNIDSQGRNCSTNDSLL
# UniProt P08173, sequence (whole entry, looked up): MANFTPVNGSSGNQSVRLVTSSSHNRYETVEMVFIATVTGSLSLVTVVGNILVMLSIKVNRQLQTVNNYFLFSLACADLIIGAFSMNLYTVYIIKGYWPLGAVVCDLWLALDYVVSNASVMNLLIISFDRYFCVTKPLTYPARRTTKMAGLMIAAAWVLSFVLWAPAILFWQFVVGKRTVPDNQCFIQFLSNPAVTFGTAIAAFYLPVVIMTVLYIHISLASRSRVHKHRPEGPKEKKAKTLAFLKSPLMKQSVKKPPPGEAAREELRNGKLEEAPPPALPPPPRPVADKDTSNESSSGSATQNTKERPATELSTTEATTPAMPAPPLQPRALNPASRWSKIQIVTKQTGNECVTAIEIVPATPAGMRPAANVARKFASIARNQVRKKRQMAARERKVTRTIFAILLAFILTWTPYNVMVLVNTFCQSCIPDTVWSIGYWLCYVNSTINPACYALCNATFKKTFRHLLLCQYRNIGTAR
# UniProt P35368, sequence (whole entry, looked up): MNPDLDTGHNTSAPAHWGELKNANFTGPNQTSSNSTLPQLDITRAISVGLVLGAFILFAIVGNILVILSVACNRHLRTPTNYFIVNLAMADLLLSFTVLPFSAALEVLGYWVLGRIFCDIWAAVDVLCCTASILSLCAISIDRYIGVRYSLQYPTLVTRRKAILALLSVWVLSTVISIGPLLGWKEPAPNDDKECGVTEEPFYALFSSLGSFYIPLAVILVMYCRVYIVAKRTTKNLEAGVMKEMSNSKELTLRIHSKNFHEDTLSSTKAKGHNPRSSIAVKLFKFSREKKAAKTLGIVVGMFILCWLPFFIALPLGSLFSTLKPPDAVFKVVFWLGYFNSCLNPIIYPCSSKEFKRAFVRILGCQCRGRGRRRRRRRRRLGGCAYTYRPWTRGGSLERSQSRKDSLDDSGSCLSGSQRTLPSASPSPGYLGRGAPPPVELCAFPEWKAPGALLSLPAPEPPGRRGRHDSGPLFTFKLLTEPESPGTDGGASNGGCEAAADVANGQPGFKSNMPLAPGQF
# UniProt P08912, sequence (whole entry, looked up): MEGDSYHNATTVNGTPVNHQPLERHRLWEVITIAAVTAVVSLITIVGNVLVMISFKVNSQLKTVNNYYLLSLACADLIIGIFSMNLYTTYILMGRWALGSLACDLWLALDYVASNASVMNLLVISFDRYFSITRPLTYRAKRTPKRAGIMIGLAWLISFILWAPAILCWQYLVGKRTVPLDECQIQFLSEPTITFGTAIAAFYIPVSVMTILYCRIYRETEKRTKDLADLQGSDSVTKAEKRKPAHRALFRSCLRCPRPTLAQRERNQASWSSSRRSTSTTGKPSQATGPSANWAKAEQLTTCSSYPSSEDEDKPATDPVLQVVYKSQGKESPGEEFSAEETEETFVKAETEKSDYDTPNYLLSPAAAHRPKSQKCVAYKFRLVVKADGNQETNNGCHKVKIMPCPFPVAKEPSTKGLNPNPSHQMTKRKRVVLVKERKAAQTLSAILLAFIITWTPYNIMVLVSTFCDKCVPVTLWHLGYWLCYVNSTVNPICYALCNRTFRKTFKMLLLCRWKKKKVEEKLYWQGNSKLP
# UniProt P21728, sequence (whole entry, looked up): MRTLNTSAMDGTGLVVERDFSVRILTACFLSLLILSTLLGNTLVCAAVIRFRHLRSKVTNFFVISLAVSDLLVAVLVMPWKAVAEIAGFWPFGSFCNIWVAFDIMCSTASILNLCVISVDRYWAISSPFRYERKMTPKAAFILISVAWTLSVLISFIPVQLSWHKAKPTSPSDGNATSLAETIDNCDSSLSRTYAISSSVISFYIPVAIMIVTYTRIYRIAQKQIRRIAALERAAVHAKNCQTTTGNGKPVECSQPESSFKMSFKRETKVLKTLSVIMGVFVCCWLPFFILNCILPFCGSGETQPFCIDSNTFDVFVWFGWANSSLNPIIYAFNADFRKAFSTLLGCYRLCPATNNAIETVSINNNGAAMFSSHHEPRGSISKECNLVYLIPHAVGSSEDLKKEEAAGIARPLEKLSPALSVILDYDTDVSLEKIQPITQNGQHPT

# Study 1
# Target: Mitogen-activated protein kinase 13 (MAPK13, Homo sapiens, UniProt O15264)
# UniProt O15264, sequence (whole entry, looked up): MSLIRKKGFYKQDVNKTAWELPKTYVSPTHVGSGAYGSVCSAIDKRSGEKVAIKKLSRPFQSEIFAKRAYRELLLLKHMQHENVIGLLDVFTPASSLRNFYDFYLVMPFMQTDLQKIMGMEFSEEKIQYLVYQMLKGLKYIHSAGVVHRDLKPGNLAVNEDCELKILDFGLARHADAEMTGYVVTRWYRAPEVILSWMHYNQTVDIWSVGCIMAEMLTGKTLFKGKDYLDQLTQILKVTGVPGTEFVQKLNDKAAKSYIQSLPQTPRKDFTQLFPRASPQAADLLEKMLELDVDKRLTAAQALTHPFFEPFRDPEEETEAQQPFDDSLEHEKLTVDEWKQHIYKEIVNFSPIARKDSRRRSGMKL
# Observed: enzyme activity
# Mode: inhibitor
# Tested at: 0.5 µM
# Reference: control
Compound,remaining activity [%]
N#CC(C#N)=C(N)/C(C#N)=C/c1ccc(O)cc1,103
Cc1cccc(-c2[nH]c(C(C)(C)C)nc2-c2ccc3c(c2)OCO3)n1,107
COc1ccc(C(=O)Nc2sc3c(c2C(N)=O)CCCC3)cc1OC,109
Nc1ccc2ncnc(NCCc3ccc(Oc4ccccc4)cc3)c2c1,100
Cn1sc(=O)n(Cc2ccccc2)c1=O,97.5
CNC(=O)c1cc(Oc2ccc(NC(=O)Nc3ccc(Cl)c(C(F)(F)F)c3)cc2)ccn1,97.5
O=S(=O)(c1cccc2cnccc12)N1CCCNCC1,98.8
O=C1NC(=O)C(c2cn(CCCO)c3ncccc23)=C1c1cnccn1,96.5
COc1ccc(OC)c2c(=S)c3ccccc3[nH]c12,103
Cn1c2ccccc2c2c3c(c4c5ccccc5n(CCC#N)c4c21)CNC3=O,104
COc1ccc(CNC(=O)Nc2ncc([N+](=O)[O-])s2)cc1,91.1
O=C(CCCc1ccc(-c2ccccc2F)cc1)Nc1ccc(O)cc1,103
OCC(O)CCON=C1C(c2c(O)[nH]c3ccccc23)=Nc2ccccc21 (centres unmarked),94.8
O=c1c2ccccc2[nH]c(=S)n1CCN1CCC(=C(c2ccc(F)cc2)c2ccc(F)cc2)CC1,106

# Study 2
# SMILES: C[C@@H](NC(=O)Nc1cc2[nH]ncc2c(CO)n1)c1ccccc1
# Observed: cell-free assay
# Tested at: 10 µM
target,inhibition
"Muscarinic acetylcholine receptor M5 (CHRM5, Homo sapiens, UniProt P08912)",35.8%
"Muscarinic acetylcholine receptor M4 (CHRM4, Homo sapiens, UniProt P08173)",-0.568%
"Alpha-1B adrenergic receptor (ADRA1B, Homo sapiens, UniProt P35368)",-2.72%
"D(3) dopamine receptor (DRD3, Homo sapiens, UniProt P35462)",-2.24%
"Beta-2 adrenergic receptor (ADRB2, Homo sapiens, UniProt P07550)",1.36%
"D(1A) dopamine receptor (DRD1, Homo sapiens, UniProt P21728)",-3.5%

# Study 3
# Cell line: HuT78
# Tested at: 2 µM
# Time: 48 h
# Reference: untreated
Structure (SMILES),viability [%]
C[C@@H](Oc1cc(-c2cnn(C3CCNCC3)c2)cnc1N)c1c(Cl)ccc(F)c1Cl,99.5
COc1ccc(COc2cc3oc(=O)c4cc(C(C)O)ccc4c3cc2OC)cc1 (centres unmarked),92.5
CCC[C@H](NC(=O)/C(C#N)=C/c1cccc(Br)n1)c1ccccc1,126
NC1(Cc2ccc(Cl)cc2)CCN(c2ncnc3[nH]ccc23)CC1,125
COc1ccccc1-c1cc(Nc2cccc(CS(N)(=O)=O)c2)ncn1,138
S=C(NCc1ccc2c(c1)OCO2)N1CCN(c2ncnc3c2oc2ccccc23)CC1,87.1
c1cc(-c2cnn3cc(-c4ccc(OCCN5CCCCC5)cc4)cnc23)ccn1,104
O=C1NC(=O)/C(=C/c2cccc(C(F)(F)F)c2)S1,142

# Further values, each from its own experiment
SMILES,test system,setting,endpoint,result
CN(N=O)C(=O)N[C@@H]1[C@@H](O)[C@H](O)[C@@H](CO)O[C@@H]1O,"mice, STZ diabetic neuropathy","dose not given, 28 days after STZ",blood glucose,520 mg/dL and 550 mg/dL and 598 mg/dL and 479 mg/dL and 580 mg/dL

# Some of these lines once more (study 2):
target,inhibition
"Alpha-1B adrenergic receptor (ADRA1B, Homo sapiens, UniProt P35368)",-2.72%
"Beta-2 adrenergic receptor (ADRB2, Homo sapiens, UniProt P07550)",1.36%
